Measurements of several laboratories.
Protocols differ between the studies behind these lines.
TYK2 JH1: Non-receptor tyrosine-protein kinase TYK2, JH1 (TYK2, Homo sapiens, UniProt P29597)
TYK2 JH2: Non-receptor tyrosine-protein kinase TYK2, JH2 (TYK2, Homo sapiens, UniProt P29597)
TYK2 JH1 domain: Non-receptor tyrosine-protein kinase TYK2, JH1 domain (TYK2, Homo sapiens, UniProt P29597)

With `COc1cc(Nc2nccc(-c3cnn4nc(OC)ccc34)n2)cc(C(F)(F)F)c1` the remaining binding was 100% (TYK2 JH1; binding, competition with immobilised ligand; 1 µM).
`Nc1ncc2c(n1)-c1c([nH]c3ccc(C4=CCOCC4)cc13)CCC2` has a remaining binding of 1.1% (TYK2 JH2; binding, competition with immobilised ligand; 1 µM).
For `COc1cc(Nc2nc(C)cc(-c3cnn4nc(OC)ccc34)n2)cc(C(F)(F)F)c1`, the remaining binding was 61% (TYK2 JH1; binding, competition with immobilised ligand; 1 µM).
For `CNC1C[S+]2CC[S+]3CC[S+](C1)[Ru-4]321([N]=C=S)[n]2c3ccc(OC)cc3c3c4c(c5cc(F)c[n+]1c5c32)C(=O)NC4=O` (stereo not drawn), the remaining binding was 100% (TYK2 JH1 domain; KinomeScan; 0.1 µM; reference: untreated).
With `CCN1CCN(Cc2ccc(C(=O)Nc3ccc(C)c(NCc4cnc5[nH]ccc5c4OC)c3)cc2C(F)(F)F)CC1` the remaining binding was 60% (TYK2 JH1; binding, competition with immobilised ligand; 1 µM).
For `CC(=O)N1c2ccc(-c3ccc(CNC(=O)c4cn5cc(-c6cnc(N)nc6)nc(N6CCOCC6)c5n4)cc3)cc2CC[C@@H]1C`, the remaining binding was 88% (TYK2 JH1 domain; KINOMEscan; 10 µM).
The remaining binding of `C=CC(=O)N1CCc2ccc(-n3c(=O)ccc4cnc5ccc(-c6cnn(C)c6)cc5c43)cc21` is reported as 100% (Non-receptor tyrosine-protein kinase TYK2, JH2 pseudokinase domain (TYK2, Homo sapiens, UniProt P29597); KINOMEscan; 1 µM; reference: DMSO control).
`CNC(=O)C1CCN(c2cc(C)c(F)cc2NC(=O)c2ccc(-c3cc(O)ccc3C)c(C)c2)CC1` has a remaining binding of 78% (TYK2 JH2; binding, competition with immobilised ligand; 1 µM).
For `CCN1CCN(Cc2ccc(NC(=O)c3ccc(C)c(NC(=O)c4cncc(-c5cnn(C)c5)c4)c3)cc2C(F)(F)F)CC1`, the remaining binding was 99% (TYK2 JH2; binding, competition with immobilised ligand; 1 µM).
With `CC(C)=CC1OC(C)(C)C2C=C3C(=O)C(Cl)=CC(O)C3C3C(O)C4OC4C(=O)C132` (stereo not drawn) the remaining binding was 59% (TYK2 JH2; cell-free assay, competition with immobilised ligand; 10 µM).
For `Cc1ccc(-c2c(/C=C(\C#N)C(=O)NC(C)C)n(CCCO)c3ncnc(N)c23)cc1`, the remaining binding was 100% (TYK2 JH1; cell-free assay, competition with immobilised ligand; 1 µM).
`C=CC(=O)N1CCCC(n2c(=O)c3ncccc3n(Cc3ccc(Oc4ccccc4)cc3)c2=O)C1` (stereo not drawn) has a remaining binding of 74% (TYK2 JH1; cell-free assay, competition with immobilised ligand; 1 µM).
`Cc1c[nH]c2nccc(-c3ccc(C(=O)N[C@@H]4c5c(F)cc(C(F)F)cc5C[C@@H]4O)cn3)c12` has a remaining binding of 5.8% (TYK2 JH1; binding, competition with immobilised ligand; 3 µM).
`COc1c(Cl)cccc1Nc1c(-c2ccncc2C#C[C@@]2(C)CCCN2C(=O)/C=C/CN(C)C)[nH]c2c1C(=O)NCC2` gave a remaining binding of 65% (TYK2 (Homo sapiens, UniProt P29597); binding, competition with immobilised ligand; 3 µM).
The remaining binding of `CN1CCN(Cc2ccc(NC(=O)c3cccc(C#Cc4cnc(N)c5ncccc45)c3)cc2C(F)(F)F)CC1` is reported as 4.6% (TYK2 JH1; cell-free assay, competition with immobilised ligand; 0.5 µM).

Repeated from above:
`COc1c(Cl)cccc1Nc1c(-c2ccncc2C#C[C@@]2(C)CCCN2C(=O)/C=C/CN(C)C)[nH]c2c1C(=O)NCC2` gave a remaining binding of 65% (TYK2 (Homo sapiens, UniProt P29597); binding, competition with immobilised ligand; 3 µM).
The remaining binding of `CN1CCN(Cc2ccc(NC(=O)c3cccc(C#Cc4cnc(N)c5ncccc45)c3)cc2C(F)(F)F)CC1` is reported as 4.6% (TYK2 JH1; cell-free assay, competition with immobilised ligand; 0.5 µM).
